Measured values collected from several papers.
A part holds a random share of what one study measured. Values joined by “and” are separate records of one study, mostly repeats; a detail may differ.
Chain of UniProt Q96D53 (whole entry, looked up): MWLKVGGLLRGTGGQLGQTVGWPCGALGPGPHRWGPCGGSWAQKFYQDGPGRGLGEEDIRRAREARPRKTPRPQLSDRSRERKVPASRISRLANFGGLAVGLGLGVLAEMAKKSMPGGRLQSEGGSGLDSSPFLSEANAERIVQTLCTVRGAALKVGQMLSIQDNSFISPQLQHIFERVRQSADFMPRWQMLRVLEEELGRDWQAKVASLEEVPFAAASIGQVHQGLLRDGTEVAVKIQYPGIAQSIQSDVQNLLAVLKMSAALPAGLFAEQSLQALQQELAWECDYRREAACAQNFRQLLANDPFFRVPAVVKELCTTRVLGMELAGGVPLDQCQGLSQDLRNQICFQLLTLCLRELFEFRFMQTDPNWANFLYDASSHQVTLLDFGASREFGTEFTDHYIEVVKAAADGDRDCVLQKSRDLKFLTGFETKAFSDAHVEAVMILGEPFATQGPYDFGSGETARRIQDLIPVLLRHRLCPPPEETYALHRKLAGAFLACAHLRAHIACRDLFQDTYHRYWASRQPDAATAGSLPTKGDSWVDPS
Chain of UniProt Q16832 (whole entry, looked up): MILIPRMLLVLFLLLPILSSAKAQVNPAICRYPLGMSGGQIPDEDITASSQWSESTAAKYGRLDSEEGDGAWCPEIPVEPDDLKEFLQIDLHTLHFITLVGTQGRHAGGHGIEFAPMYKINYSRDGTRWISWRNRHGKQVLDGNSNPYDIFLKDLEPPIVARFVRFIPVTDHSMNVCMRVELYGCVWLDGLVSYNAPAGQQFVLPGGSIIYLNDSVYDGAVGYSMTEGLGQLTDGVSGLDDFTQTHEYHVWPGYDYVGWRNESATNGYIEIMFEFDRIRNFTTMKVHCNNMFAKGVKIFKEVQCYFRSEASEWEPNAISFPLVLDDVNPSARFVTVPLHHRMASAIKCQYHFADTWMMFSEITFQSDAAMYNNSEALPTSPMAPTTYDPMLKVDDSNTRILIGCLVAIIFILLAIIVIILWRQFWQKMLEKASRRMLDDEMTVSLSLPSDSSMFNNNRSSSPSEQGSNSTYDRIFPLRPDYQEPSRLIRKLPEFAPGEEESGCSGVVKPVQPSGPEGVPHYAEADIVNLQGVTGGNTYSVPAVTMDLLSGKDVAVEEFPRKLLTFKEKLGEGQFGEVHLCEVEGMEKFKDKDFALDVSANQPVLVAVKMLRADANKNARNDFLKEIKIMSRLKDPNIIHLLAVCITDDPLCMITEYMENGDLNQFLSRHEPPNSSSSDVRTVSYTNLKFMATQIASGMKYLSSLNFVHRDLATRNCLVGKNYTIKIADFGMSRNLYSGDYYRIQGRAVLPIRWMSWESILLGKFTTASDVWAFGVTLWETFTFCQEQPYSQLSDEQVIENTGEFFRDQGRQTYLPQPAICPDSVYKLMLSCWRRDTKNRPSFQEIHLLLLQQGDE
Chain of UniProt P49759 (whole entry, looked up): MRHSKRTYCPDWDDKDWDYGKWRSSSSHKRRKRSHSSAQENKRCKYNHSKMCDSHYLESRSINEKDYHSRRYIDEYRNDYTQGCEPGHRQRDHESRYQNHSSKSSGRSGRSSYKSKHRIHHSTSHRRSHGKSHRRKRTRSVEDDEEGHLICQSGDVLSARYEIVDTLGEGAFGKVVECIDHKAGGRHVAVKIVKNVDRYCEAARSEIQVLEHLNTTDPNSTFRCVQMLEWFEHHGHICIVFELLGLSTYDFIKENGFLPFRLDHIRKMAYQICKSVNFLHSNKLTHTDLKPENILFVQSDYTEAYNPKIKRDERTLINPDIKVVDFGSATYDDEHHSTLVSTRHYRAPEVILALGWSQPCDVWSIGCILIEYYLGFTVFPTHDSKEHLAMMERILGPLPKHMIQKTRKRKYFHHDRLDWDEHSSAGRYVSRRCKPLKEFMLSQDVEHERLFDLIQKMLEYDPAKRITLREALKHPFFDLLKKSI
Chain of UniProt Q86Y07 (whole entry, looked up): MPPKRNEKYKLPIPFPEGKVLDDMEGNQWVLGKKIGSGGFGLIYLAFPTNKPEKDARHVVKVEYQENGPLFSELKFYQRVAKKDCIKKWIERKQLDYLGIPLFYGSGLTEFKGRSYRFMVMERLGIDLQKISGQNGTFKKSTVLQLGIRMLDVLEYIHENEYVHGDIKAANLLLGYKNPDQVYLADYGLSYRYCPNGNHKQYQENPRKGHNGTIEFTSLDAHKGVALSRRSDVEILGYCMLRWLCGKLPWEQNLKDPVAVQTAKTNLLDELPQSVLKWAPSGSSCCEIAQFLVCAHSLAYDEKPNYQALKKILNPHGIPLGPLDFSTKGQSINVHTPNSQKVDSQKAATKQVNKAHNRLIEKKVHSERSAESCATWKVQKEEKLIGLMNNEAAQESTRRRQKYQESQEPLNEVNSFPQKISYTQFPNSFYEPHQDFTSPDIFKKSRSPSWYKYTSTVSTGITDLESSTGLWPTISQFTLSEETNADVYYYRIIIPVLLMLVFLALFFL
Chain of UniProt Q9UHD2 (whole entry, looked up): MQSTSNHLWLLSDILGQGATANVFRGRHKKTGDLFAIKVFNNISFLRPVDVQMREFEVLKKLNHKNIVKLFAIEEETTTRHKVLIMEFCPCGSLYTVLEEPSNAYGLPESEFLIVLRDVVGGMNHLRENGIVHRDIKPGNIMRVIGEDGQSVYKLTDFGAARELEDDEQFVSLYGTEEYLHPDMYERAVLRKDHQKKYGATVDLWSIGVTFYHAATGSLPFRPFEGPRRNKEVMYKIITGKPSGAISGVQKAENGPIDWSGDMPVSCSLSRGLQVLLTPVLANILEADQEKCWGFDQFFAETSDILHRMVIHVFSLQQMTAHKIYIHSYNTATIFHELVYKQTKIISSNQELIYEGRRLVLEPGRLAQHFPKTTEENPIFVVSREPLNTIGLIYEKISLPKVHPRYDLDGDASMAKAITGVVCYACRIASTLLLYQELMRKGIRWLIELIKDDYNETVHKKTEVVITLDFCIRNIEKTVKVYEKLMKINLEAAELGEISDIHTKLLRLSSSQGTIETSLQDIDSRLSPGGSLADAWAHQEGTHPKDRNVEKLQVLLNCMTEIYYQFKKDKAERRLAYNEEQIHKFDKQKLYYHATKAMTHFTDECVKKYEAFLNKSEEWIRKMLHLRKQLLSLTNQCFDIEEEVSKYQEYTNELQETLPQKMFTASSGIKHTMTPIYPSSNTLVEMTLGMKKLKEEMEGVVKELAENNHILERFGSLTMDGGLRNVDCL
Chain of UniProt P42336 (whole entry, unmodified, looked up): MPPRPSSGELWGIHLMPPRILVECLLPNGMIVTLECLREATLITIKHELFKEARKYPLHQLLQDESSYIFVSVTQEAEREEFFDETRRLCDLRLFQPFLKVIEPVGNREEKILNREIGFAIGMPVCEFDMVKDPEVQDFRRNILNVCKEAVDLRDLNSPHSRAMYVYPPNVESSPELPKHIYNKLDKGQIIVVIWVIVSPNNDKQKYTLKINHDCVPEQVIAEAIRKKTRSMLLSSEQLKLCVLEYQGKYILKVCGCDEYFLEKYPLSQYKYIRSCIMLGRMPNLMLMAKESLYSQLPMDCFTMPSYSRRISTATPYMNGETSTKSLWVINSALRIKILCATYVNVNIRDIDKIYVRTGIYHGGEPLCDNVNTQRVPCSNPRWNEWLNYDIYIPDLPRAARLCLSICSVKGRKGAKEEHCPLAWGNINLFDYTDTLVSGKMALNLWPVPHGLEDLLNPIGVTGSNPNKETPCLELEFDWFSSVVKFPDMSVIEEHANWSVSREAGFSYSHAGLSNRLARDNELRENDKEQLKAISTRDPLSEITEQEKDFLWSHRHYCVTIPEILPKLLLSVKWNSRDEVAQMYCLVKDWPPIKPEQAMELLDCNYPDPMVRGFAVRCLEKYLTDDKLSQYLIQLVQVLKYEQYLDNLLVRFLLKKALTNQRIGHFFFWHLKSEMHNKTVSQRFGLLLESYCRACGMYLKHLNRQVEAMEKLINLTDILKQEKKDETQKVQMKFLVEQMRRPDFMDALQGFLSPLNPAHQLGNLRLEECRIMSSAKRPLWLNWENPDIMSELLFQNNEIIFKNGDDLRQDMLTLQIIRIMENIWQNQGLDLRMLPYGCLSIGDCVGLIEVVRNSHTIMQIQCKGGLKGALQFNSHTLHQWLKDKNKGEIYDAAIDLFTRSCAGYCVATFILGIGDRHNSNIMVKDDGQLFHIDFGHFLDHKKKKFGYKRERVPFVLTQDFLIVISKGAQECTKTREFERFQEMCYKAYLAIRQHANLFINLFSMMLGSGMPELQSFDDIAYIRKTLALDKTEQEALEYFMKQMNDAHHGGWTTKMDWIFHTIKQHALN
Chain of UniProt Q16539 (whole entry, looked up): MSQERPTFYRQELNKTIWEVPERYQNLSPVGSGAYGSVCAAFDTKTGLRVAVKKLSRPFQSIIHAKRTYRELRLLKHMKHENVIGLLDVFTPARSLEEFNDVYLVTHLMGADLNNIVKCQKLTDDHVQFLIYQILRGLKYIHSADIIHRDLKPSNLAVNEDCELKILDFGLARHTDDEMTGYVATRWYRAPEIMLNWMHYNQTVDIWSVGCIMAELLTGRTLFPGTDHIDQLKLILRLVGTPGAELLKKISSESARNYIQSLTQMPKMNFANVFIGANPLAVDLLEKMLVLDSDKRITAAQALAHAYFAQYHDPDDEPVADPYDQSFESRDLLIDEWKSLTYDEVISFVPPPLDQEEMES
Chain of UniProt P49674 (whole entry, looked up): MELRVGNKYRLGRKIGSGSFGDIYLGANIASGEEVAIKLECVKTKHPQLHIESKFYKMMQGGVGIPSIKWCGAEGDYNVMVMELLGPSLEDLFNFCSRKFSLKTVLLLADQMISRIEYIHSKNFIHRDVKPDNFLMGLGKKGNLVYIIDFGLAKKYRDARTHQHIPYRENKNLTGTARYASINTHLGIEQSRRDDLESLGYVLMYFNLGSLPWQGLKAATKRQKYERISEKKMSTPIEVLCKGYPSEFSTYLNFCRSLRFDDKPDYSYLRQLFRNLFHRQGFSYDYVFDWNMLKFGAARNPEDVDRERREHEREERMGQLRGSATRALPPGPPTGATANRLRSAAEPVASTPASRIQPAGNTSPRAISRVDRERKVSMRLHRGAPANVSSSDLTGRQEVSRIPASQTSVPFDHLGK

Study 1
Structure (SMILES): CCCOc1ccc([C@H]2[C@H](C(=O)O)[C@@H](c3ccc4c(c3)OCO4)CN2CC(=O)Nc2c(CC)cccc2CC)cc1
Effect on: cell-free assay
Technique: competition with immobilised ligand
Tested at: 1 µM
For Dual specificity protein kinase CLK4 (CLK4, Homo sapiens, UniProt Q9HAZ1): remaining binding read 100%.
Casein kinase I isoform epsilon (CSNK1E, Homo sapiens, UniProt P49674) — remaining binding: 100%.
For Serine/threonine-protein kinase TBK1 (TBK1, Homo sapiens, UniProt Q9UHD2): remaining binding read 91%.
Hepatocyte growth factor receptor (MET, Homo sapiens, UniProt P08581, M1250T) — remaining binding: 71%.
It gave 61% for remaining binding (Serine/threonine-protein kinase VRK2 (VRK2, Homo sapiens, UniProt Q86Y07)).
It gave 90% for remaining binding (Atypical kinase COQ8B, mitochondrial (COQ8B, Homo sapiens, UniProt Q96D53)).
The remaining binding was 95% (SRSF protein kinase 1 (SRPK1, Homo sapiens, UniProt Q96SB4)).
For Serine/threonine-protein kinase SIK2 (SIK2, Homo sapiens, UniProt Q9H0K1): remaining binding read 89%.
Epidermal growth factor receptor (EGFR, Homo sapiens, UniProt P00533, L858R/T790M) — remaining binding: 75%.
Mitogen-activated protein kinase 14 (MAPK14, Homo sapiens, UniProt Q16539) — remaining binding: 99%.
It gave 89% for remaining binding (Serine/threonine-protein kinase WNK1 (WNK1, Homo sapiens, UniProt Q9H4A3)).
The remaining binding was 81% (Serine/threonine-protein kinase WNK4 (WNK4, Homo sapiens, UniProt Q96J92)).
The remaining binding was 94% (Serine/threonine-protein kinase MRCK alpha (CDC42BPA, Homo sapiens, UniProt Q5VT25)).
Phosphatidylinositol 4,5-bisphosphate 3-kinase catalytic subunit alpha isoform (PIK3CA, Homo sapiens, UniProt P42336, E545K) — remaining binding: 61%.
Glycogen synthase kinase-3 alpha (GSK3A, Homo sapiens, UniProt P49840) — remaining binding: 86%.

Study 2
SMILES: CCC(=O)N1CCN(c2nc(OC[C@@H]3CCCN3C)nc3c2CCN(c2cccc4cccc(Cl)c24)C3)C[C@@H]1CC#N
Effect on: binding
Action: competitor
Technique: NanoBRET
Cells: HEK293
KRAS Q61H: GTPase KRas (KRAS, Homo sapiens, UniProt P01116, Q61H)
For KRAS Q61H; 45.7 nM: normalized BRET read 90.3% and 97.5% and 85.6%.
KRAS Q61H; 412 nM — normalized BRET: 81% and 70.1% and 68.9%.
It gave 94.3% and 103% and 91.1% for normalized BRET (GTPase KRas (KRAS, Homo sapiens, UniProt P01116, Q61L); 45.7 nM).
It gave 99.6% and 85.6% and 106% for normalized BRET (GTPase KRas (KRAS, Homo sapiens, UniProt P01116, Q61R); 1.24 µM).
For GTPase KRas (KRAS, Homo sapiens, UniProt P01116, G12D); 1.69 nM: normalized BRET read 98% and 103% and 98.8%.

Study 3
SMILES: C[C@H]1CC[C@H](n2c3cnccc3c3cnc(Nc4ccc5c(n4)CCN(C(=O)CO)C5)nc32)CC1
Tested at: 1 µM
Serine/threonine-protein kinase ULK3 (ULK3, Homo sapiens, UniProt Q6PHR2); binding, competition with immobilised ligand — remaining binding: 77%.
The remaining binding was 100% (Discoidin domain-containing receptor 2 (DDR2, Homo sapiens, UniProt Q16832); cell-free assay, competition with immobilised ligand).
For Activin receptor type-1-like (ACVRL1, Homo sapiens, UniProt P37023); binding, competition with immobilised ligand: remaining binding read 100%.
For Dual specificity protein kinase CLK1 (CLK1, Homo sapiens, UniProt P49759); binding, competition with immobilised ligand: remaining binding read 0.6%.
The remaining binding was 52% (Calcium/calmodulin-dependent protein kinase type 1G (CAMK1G, Homo sapiens, UniProt Q96NX5); binding).

Study 4
Host: human
Sample: microsomes or S9
Tested at: 2 µM
Time: 0.5 h
For `CC(C)CC(O)C1CCN(C(=O)CCCn2cncn2)CC1` (stereo not drawn), the remaining compound was 89.3%.
For `CC(C)C(=O)NC[C@@H]1C[C@H](F)CN1C(=O)CS(C)(=O)=O`, the remaining compound was 68.8%.
For `C[C@H](Nc1ccnc2c1NC(=O)CN2)c1cc2cccc(Cl)c2c(=O)n1-c1ccccc1`, the remaining compound was 75.7%.
`CC(C)Cn1c(NCCc2ccccc2)nc2c1c(O)nc(=O)n2C` has a remaining compound of 48.3%.
For `CCOC(=O)C(CCC1(Cc2cccs2)C(=O)OC(C)(C)OC1=O)(NC(C)=O)C(=O)OCC`, the remaining compound was 6.33%.
